Measured values collected from several papers.
Every numbered part comes from another study and shows a few of its results, in no order. Changes are numbered by the printed parent chain.
Sequence of UniProt Q9UQM7 (whole entry, looked up): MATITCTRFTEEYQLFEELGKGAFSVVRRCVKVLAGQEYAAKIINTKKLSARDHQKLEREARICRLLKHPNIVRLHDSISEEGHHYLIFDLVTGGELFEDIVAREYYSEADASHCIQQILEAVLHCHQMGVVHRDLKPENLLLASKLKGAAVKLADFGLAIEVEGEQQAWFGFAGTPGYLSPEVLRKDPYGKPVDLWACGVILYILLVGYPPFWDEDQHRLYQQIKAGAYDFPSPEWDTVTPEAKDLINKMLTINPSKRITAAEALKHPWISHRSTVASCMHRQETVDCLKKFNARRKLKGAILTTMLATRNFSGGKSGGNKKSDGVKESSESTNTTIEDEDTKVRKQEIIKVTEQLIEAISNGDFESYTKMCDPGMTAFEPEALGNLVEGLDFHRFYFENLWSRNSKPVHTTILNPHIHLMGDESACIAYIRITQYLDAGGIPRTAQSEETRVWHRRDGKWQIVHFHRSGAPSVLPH

Block 1
Target: UBE2D4 UBC core domain (UniProt Q9Y2X8)
Method: yeast two-hybrid
Matrix: yeast
Notes: mostly zero background
Baseline: not given
Direction: higher = stronger interaction
B1: RNF38 RING domain (UniProt Q9H0F5); chain PNNHQSEQTLCVVCMCDFESRQLLRVLPCNHEFHAKCVDKWLKANRTCPICRADASEVHRDS
B2: TRIM5 RING domain (UniProt Q9C035); chain LREVKLSPEGQKVDHCARHGEKLLLFCQEDGKVICWLCERSQEHRGHHTFLTEEVAREYQVKL
B3: RC3H1 RING domain (UniProt Q5TC82); chain QAPQWTDFLSCPICTQTFDETIRKPISLGCGHTVCKMCLNKLHRKACPFDQTTINTDIELL
B4: SH3RF2 RING domain (UniProt Q8TEC5); chain DDLTLLDLLECPVCFEKLDVTAKVLPCQHTFCKPCLQRVFKAHKELRCPECRTPVFSNIEAL
B5: TRIM43 RING domain (UniProt Q96BQ3); chain FSHAFQKELTCVICLNYLVDPVTICCGHSFCRPCLCLSWEEAQSPANCPACREPSPKMDFKT
Construct (chain): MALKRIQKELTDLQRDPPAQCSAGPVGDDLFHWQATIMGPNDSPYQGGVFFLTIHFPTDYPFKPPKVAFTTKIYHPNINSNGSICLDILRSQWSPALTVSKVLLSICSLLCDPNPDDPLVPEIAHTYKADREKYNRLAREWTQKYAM
Molecule	lacZ reporter activity
B1 (RNF38 RING domain)	0
B2 (TRIM5 RING domain)	0
VEPSEENSKDCVVCQNGTVNWVLLPCRHTCLCDGCVKYFQQCPMCRQFVQESFALC (CGRRF1 RING domain (UniProt Q99675))	0
GAAPGPEAAECLVCSELALLVLFSPCQHRTVCEECARRMKKCIRCQVVVSKKLRPD (MIB2 RING domain (UniProt Q96AX9))	0
B3 (RC3H1 RING domain)	0
B4 (SH3RF2 RING domain)	0
PAELEVQASECVVCLEREAQMIFLNCGHVCCCQQCCQPLRTCPLCRQDIAQRLRIY (LRSAM1 RING domain (UniProt Q6UWE0))	0
B5 (TRIM43 RING domain)	0

Block 2
Target: HLA class I histocompatibility antigen, A alpha chain, allele A*80:01 (Homo sapiens, UniProt P04439)
Read-out: peptide-MHC binding
Form: peptide
Concentration: concentration not given
Molecule	binding
YMMDGNECP	inactive
IMANRAQVL	inactive
MLRKKQITV	inactive
ETFNTPAMY	inactive
WQDGGWQSV	inactive
KVGYFQHGA	inactive
MSRKLHRYI	inactive
FLQQRKPPL	inactive

Block 3
Target: CCNE1, cyclin fold, Cln2 fusion (human)
Method: yeast growth competition, sequencing
Matrix: yeast
Notes: strong parent motif
Baseline: not given
Direction: higher = stronger binding
Parent: viral docking peptide; KKAKRRLFTISDS; partner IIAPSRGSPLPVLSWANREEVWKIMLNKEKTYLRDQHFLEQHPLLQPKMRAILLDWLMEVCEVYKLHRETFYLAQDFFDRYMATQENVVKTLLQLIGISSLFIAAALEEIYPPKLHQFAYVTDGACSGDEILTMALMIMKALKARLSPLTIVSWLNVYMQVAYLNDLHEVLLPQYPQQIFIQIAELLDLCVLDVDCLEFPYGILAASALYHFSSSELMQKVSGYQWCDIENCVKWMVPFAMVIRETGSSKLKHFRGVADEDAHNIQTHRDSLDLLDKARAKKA
Change	normalised enrichment score
KKAKKRLLTISDS [R5K F8L]	0.199
KKAARRLFTISDS [K4A]	1.87
AKAKRRLFTISDS [K1A]	3.86
KKAKRRLFTASDS [I10A]	4.59
KKAKRALFTISDS [R6A]	2.73
KAAKRRLFTISDS [K2A]	2.68
KKAKRRLFTISAS [D12A]	1.23
KKAKARAFTISDS [R5A L7A]	-0.216

Mixed results
Structure (SMILES)	target	read-out	mode	concentration	measurement	value
C=C/C=C/C[C@@H](C)[C@@H](O)[C@H]1C(=O)N[C@@H](CC)C(=O)N(C)CC(=O)N(C)[C@@H](CC(C)C)C(=O)N[C@@H](C(C)C)C(=O)N(C)[C@@H](CC(C)C)C(=O)N[C@@H](C)C(=O)N[C@H](C)C(=O)N(C)[C@@H](CC(C)C)C(=O)N(C)[C@@H](CC(C)C)C(=O)N(C)[C@@H](C(C)C)C(=O)N1C	Calcium/calmodulin-dependent protein kinase type II subunit alpha (CAMK2A, Homo sapiens, UniProt Q9UQM7)	enzyme activity	inhibitor	10 µM	inhibition	-3%

Repeated from above (block 3):
Change	normalised enrichment score
AKAKRRLFTISDS [K1A]	3.86
KKAKRRLFTASDS [I10A]	4.59
KKAKRALFTISDS [R6A]	2.73
KAAKRRLFTISDS [K2A]	2.68
